Assay results from different studies.
Lines come from different studies, so protocols differ. Several values in a cell are separate wells, animals, samples, runs or records.

Structure (SMILES)	test system	conditions	scale	endpoint	result
COc1ccc(-c2ccc3ncc4c(c3c2)n([C@@H]2CCN(C)CC2(F)F)c(=O)n4C)cn1	mouse, sample A orthotopic PDX	7.5 mg/kg x 10, no radiation		median survival	23 days
Cc1nc(Nc2ncc(C(=O)Nc3c(C)cccc3Cl)s2)cc(N2CCN(CCO)CC2)n1	mouse, MIA PaCa-2 experimental metastasis	oral, 40 mg/kg		median survival	73.6 days
Cc1cc(-c2nc(C(=O)Nc3cc4oc(N5CCOCC5)nc4nc3N3CC[C@@H](O)C3)co2)ccn1	OCI-Ly3 PCNSL xenograft, mouse, intracranial tumour	oral, 100 mg/kg, two weeks	reference: vehicle	median survival increase	68%
Nc1ccn([C@@H]2O[C@H](CO)[C@@H](O)C2(F)F)c(=O)n1	mouse, MIA PaCa-2 experimental metastasis	intraperitoneal, 80 mg/kg		median survival	62.1 days
CCCCCN1C[C@H](O)[C@@H](O)[C@H](O)[C@@H]1CO	Hexb-/- mouse, mixed sex	30 mg/kg/day		median survival time	150 days
CC(C)[C@@H](CS(=O)(=O)C(C)C)N1C(=O)[C@@](C)(CC(=O)O)C[C@H](c2cccc(Cl)c2)[C@H]1c1ccc(Cl)cc1	mouse, orthotopic PDX	100 mg/kg, extended dosing until moribund		median survival	51 days
COc1ccc([C@@H](O)c2cc(-c3ncnc4cc(N5CCOCC5)ccc34)c(F)cc2Cl)nn1	mouse, orthotopic M12-eGFP tumour	125 mg/kg, together with: radiotherapy	reference: radiotherapy alone	median survival extension	105% and 104%
Cc1c(C(=O)O)ccc2c3n(nc12)[C@@H]1[C@H](C3)N(CC2CC2)[C@@]2(C(=O)Nc3cc(Cl)ccc32)[C@H]1c1cccc(Cl)c1F	mouse, orthotopic MDM2-amplified PDX	2 mg/kg weekly, 2 doses		median survival	66 days

For quick reference, copied from above:
Structure (SMILES)	test system	conditions	scale	endpoint	result
CCCCCN1C[C@H](O)[C@@H](O)[C@H](O)[C@@H]1CO	Hexb-/- mouse, mixed sex	30 mg/kg/day		median survival time	150 days
